Results pooled from the literature.
A part holds a random share of what one study measured. Values joined by “and” are separate records of one study, mostly repeats; a detail may differ.
Chain of UniProt P61075 (whole entry, looked up): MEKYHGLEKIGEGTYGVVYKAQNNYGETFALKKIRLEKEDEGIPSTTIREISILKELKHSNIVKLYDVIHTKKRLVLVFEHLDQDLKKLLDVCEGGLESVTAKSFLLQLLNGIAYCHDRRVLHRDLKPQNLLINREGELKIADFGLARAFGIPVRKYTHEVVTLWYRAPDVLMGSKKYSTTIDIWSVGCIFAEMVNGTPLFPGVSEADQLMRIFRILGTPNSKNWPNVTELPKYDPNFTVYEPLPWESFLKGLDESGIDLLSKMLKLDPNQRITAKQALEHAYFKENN
Chain of UniProt P9WI81 (whole entry, looked up): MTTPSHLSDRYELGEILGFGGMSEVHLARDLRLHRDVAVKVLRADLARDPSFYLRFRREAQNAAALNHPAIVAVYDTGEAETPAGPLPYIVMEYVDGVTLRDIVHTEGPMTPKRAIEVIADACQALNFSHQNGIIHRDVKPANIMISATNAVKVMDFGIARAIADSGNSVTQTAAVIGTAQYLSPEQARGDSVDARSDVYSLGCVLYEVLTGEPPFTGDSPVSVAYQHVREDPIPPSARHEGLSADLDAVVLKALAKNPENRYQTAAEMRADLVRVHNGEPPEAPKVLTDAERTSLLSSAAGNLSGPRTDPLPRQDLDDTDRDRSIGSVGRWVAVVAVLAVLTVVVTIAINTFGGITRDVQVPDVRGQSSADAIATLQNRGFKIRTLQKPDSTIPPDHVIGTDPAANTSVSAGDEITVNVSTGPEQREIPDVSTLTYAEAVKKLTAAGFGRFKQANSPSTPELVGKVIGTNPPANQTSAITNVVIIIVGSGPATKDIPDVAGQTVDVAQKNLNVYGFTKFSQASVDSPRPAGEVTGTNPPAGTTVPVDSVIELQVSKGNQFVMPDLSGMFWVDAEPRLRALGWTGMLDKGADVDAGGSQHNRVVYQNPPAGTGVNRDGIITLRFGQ

Series 1 — cell line: HEK-293T; effect on: pseudovirus infection; technique: FDA-approved drug library counter-screen; organism: VSV pseudotyped with VSV-G; concentration: 10 µM; time: 16 h; relative to: vehicle-treated
| Structure (SMILES) | GFP-positive cells |
| --- | --- |
| COc1ncnc(NS(=O)(=O)c2ccc(N)cc2)c1OC | 87.4% |
| CCOC(=O)CCC(=O)O[C@H]1[C@H](O[C@@H]2[C@@H](C)[C@H](O[C@H]3C[C@@](C)(OC)[C@@H](O)[C@H](C)O3)[C@@H](C)C(=O)O[C@H](CC)[C@@](C)(O)[C@H](O)[C@@H](C)C(=O)[C@H](C)C[C@@]2(C)O)O[C@H](C)C[C@@H]1N(C)C | 99.8% |
| Cc1nnc(SCC2=C(C(=O)O)N3C(=O)[C@@H](NC(=O)Cn4cnnn4)[C@H]3SC2)s1 | 91.5% |

Further values, each from its own experiment
| Compound | tested on | test | test system | setting | measurement | result |
| --- | --- | --- | --- | --- | --- | --- |
| CN(c1ccnc(CNc2nc(Nc3ccc4c(c3)CC(=O)N4)ncc2C(F)(F)F)n1)S(C)(=O)=O | CRK2 (Plasmodium falciparum, UniProt P61075) | cell-free assay, competition with immobilised ligand |  | 1 µM | remaining binding | 75% |
| CN(C(=O)/C=C/c1ccoc1)[C@@H]1CC[C@@]2(O)[C@H]3Cc4ccc(O)c5c4[C@@]2(CCN3CC2CC2)[C@H]1O5 | HaCaT |  |  | 100 µM, 60 h | viability | 122% |
| Cc1c(-c2cnccn2)ssc1=S | chymotrypsin | enzyme activity |  | concentration not given | inhibition | 9.9% |
| Cn1cc(Cl)c2c(Oc3c(F)cc(Nc4cc(Cl)nc(N)n4)cc3F)ccnc21 | pknB (Mycobacterium tuberculosis, UniProt P9WI81) | cell-free assay, competition with immobilised ligand |  | 0.1 µM | remaining binding | 100% |
| CN(N=O)C(=O)N[C@@H]1[C@@H](O)[C@H](O)[C@@H](CO)O[C@@H]1O |  |  | mice, STZ diabetic neuropathy | dose not given, 28 days after STZ | body weight | 36.2 g and 32 g and 33.5 g and 27 g |

Excerpt of the above (further values, each from its own experiment):
| Compound | tested on | test | test system | setting | measurement | result |
| --- | --- | --- | --- | --- | --- | --- |
| CN(C(=O)/C=C/c1ccoc1)[C@@H]1CC[C@@]2(O)[C@H]3Cc4ccc(O)c5c4[C@@]2(CCN3CC2CC2)[C@H]1O5 | HaCaT |  |  | 100 µM, 60 h | viability | 122% |
